Experimental data pooled from the literature.
Compare with care: the assays were run in different laboratories. ± marks the error that the study gave.
Organism: Influenza A virus

| Compound | test | system | setting | EC50 [µM] |
| --- | --- | --- | --- | --- |
| CCN(CC)CC12C3CCC4C3C3C(CCC31)C42 | viral replication | MDCK, H1N1 A/PR/8/34 |  | > 100 |
| COC1(C)OC(=O)C(c2ccc(C)cc2)=C1N1CCOCC1 (centres unmarked) |  | MDCK, H1N1 A/Weiss/43 | 72 h | 14.1 ± 2.5 |
| COc1cccc(CNC(=O)c2cc(C3CC3)nn2C)c1OC | viral replication | MDCK, A/WSN/33 |  | < 1 |
| CCOC(=O)C1=C[C@@H](OC(CC)CC)[C@H](NC(C)=O)[C@@H](NCCCCCCCC(=O)Nc2cccc3c2C(=O)N(C2CCC(=O)NC2=O)C3=O)C1 (some centres unmarked) | viral replication | MDCK, H1N1 |  | 2.03 ± 0.02 |
| CN(Cc1ccccc1)CC12C3CCC4C3C3C(CCC31)C42 | viral replication | MDCK, H1N1 A/PR/8/34 |  | > 100 |
| COc1cc(-c2oc3cc(O[C@@H]4O[C@@H](C)[C@H](O)[C@@H](O)[C@H]4O)cc(O)c3c(=O)c2O[C@@H]2O[C@H](COC(=O)c3cc(O)c(O)c(O)c3)[C@@H](O)[C@H](O)[C@H]2OC(=O)c2cc(O)c(O)c(O)c2)ccc1O | viral replication | MDCK, A/Vladivostok/2/09(H1N1) |  | 129.3 ± 0.8 |
| Clc1ccc(CNC23CC4CC(CC(C4)C2)C3)s1 | viral replication, plaque reduction | MDCK, A/Udorn/72 wild-type M2 |  | 3.8 |
| CNCC12C3CCC4C3C3C(CCC31)C42 | viral replication, inhibitor | H3N2 |  | > 100 |
| CCOC(=O)C1=C[C@@H](OC(CC)CC)[C@H](NC(C)=O)[C@@H](NCCCCCCCCC(=O)N[C@H](C(=O)N2C[C@@H](O)C[C@H]2C(=O)N[C@@H](C)c2ccc(-c3scnc3C)cc2)C(C)(C)C)C1 | viral replication | MDCK, H1N1 |  | > 50 |
| Ic1ccc(CNC23CC4CC(CC(C4)C2)C3)s1 | viral replication, plaque reduction | MDCK, A/Udorn/72 wild-type M2 |  | 4 |
| c1csc(CNCC23C4CCC5C4C4C(CCC42)C53)c1 | viral replication | MDCK, H3N2 A/HK/7/87 |  | > 100 |
| COC1=C(c2ccc(F)cc2)C(=O)OC1(C)OC (centres unmarked) |  | MDCK, H1N1 A/Weiss/43 | 72 h | 16.2 ± 1.7 |
| COc1cc(-c2oc3cc(O)cc(O)c3c(=O)c2O[C@@H]2O[C@H](CO)[C@@H](O)[C@H](O)[C@H]2OC(=O)c2cc(O)c(O)c(O)c2)ccc1O | viral replication | MDCK, A/Vladivostok/2/09(H1N1) |  | 14.9 ± 0.07 |
| CCOC(=O)C1=C[C@@H](OC(CC)CC)[C@H](NC(C)=O)[C@@H](NCCCCCCCCCC(=O)Nc2cccc3c2C(=O)N(C2CCC(=O)NC2=O)C3=O)C1 (some centres unmarked) | viral replication | MDCK, H1N1 |  | 4.13 ± 0.14 |
| CN1CC23C4CCC5C4C4C2CCC4C53C1 | viral replication | MDCK, H1N1 A/PR/8/34 |  | 2.9 |
| CCOC(=O)C1=C[C@@H](OC(CC)CC)[C@H](NC(C)=O)[C@@H](NCCCCCCCCC(=O)Nc2cccc3c2C(=O)N(C2CCC(=O)NC2=O)C3=O)C1 (some centres unmarked) | viral replication | MDCK, H1N1 |  | 1.84 ± 0.23 |
| COc1cc(-c2oc3cc(O[C@@H]4O[C@H](CO)[C@@H](O)[C@H](O)[C@H]4O)cc(O)c3c(=O)c2O[C@@H]2O[C@H](CO[C@@H]3O[C@@H](C)[C@H](OC(C)=O)[C@@H](O)[C@H]3OC(C)=O)[C@@H](O)[C@H](O)[C@H]2O)ccc1O | viral replication | MDCK, A/Vladivostok/2/09(H1N1) |  | 109.2 ± 0.92 |
| COc1ccc(C2=C(N3CCCC(O)C3)C(C)(OC)OC2=O)cc1 (centres unmarked) |  | MDCK, H1N1 A/Weiss/43 | 72 h | 25.9 ± 0.1 |
| COc1cc(-c2oc3cc(O[C@@H]4O[C@@H](C)[C@H](O)[C@@H](O)[C@H]4O)cc(O)c3c(=O)c2O[C@@H]2O[C@H](CO[C@@H]3O[C@@H](C)[C@H](O)[C@@H](O)[C@H]3O)[C@@H](O)[C@H](OC(C)=O)[C@H]2O)ccc1O | viral replication | MDCK, A/Vladivostok/2/09(H1N1) |  | 1.3 ± 0.04 |
| CCN(CC)C12C3CCC4C3C3C(CCC31)C42 | viral replication, inhibitor | H3N2 |  | > 100 |

For quick reference, copied from above:
| Compound | test | system | setting | EC50 [µM] |
| --- | --- | --- | --- | --- |
| CCOC(=O)C1=C[C@@H](OC(CC)CC)[C@H](NC(C)=O)[C@@H](NCCCCCCCCC(=O)Nc2cccc3c2C(=O)N(C2CCC(=O)NC2=O)C3=O)C1 (some centres unmarked) | viral replication | MDCK, H1N1 |  | 1.84 ± 0.23 |
| COc1cc(-c2oc3cc(O[C@@H]4O[C@H](CO)[C@@H](O)[C@H](O)[C@H]4O)cc(O)c3c(=O)c2O[C@@H]2O[C@H](CO[C@@H]3O[C@@H](C)[C@H](OC(C)=O)[C@@H](O)[C@H]3OC(C)=O)[C@@H](O)[C@H](O)[C@H]2O)ccc1O | viral replication | MDCK, A/Vladivostok/2/09(H1N1) |  | 109.2 ± 0.92 |
| COc1ccc(C2=C(N3CCCC(O)C3)C(C)(OC)OC2=O)cc1 (centres unmarked) |  | MDCK, H1N1 A/Weiss/43 | 72 h | 25.9 ± 0.1 |
